Published values from different studies.
A part holds a random share of what one study measured.

Set 1
Target: RNA binding protein fox-1 homolog 2, RRM domain, GST-SBP tag (RBFOX2, Homo sapiens, UniProt O43251-10, residues 100-194)
Technique: RNA Bind-n-Seq
Form: RNA
Sample: in vitro
Tested at: 365 nM
Notes: natural RNA segment, single round, ends assumed
Relative to: no-protein control
Direction: higher = stronger binding
All sequences stand within: GGGAGUUCUACAGUCCGACGAUC … UGGAAUUCUCGGGUGCCAA
Construct (chain): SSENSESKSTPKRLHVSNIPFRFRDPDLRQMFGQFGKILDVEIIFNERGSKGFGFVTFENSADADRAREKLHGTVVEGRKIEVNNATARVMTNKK
`UCAGUGACACCGUCCUGCCUAACCAGAUGCGGUCAGCCUCUUCACACCCACCUGGCUUGCAUCCCCCAUCCCUUGUUCACACGCCCUGAUUCACGGUGAGACAUUUUGCC` — result for “RBNS enrichment (R)”: 0.916.
Under “RBNS enrichment (R)”, `UUGGUAGUACGUGGUACAGUGGCUUUUCUCUGUGGUCAUGUCUUAGGGGCAAAGGCGUGUGGAUGGUGCCAAUGAAACCCUUUACCUAUUUAAUAAAAACGGAUACAUUU` is recorded as 0.509.
Under “RBNS enrichment (R)”, `AUUUCAGCCUCGUGGCUUCUCUUAUUCAGGUCCAAGGCCCCUUAAAAACAAAACAUAUUAUCGCAAGGGCUUUCAUUUCAGUAUUGGCUGUGUCACUGGCAGGAUGCAUC` is recorded as 0.894.
`GACACUAGACUCAGUAGAUUUUUAGGGAAAAAUAUGAUUAAUAGUAUCAUGGUGAACCAUUUAUUUAACUGUUGAUCUAGUCACCAAUACCUAGAAGACACCAUAAUCAG`: “RBNS enrichment (R)” 0.289.
`AUCUGGGCCUGUCUGAACCCCUCGUUCUUCAUGUUUAGGUGAAUAUGAAUAUGUUAAAGCUGGUGGCUCAGCUGGGAGAUUUAUAUGGGUCACUGUGCGAGCUUCCUUAU` — result for “RBNS enrichment (R)”: 0.781.
`CCUCCUUCCCUUGCUCCUCCUCUGGAGAAGCACUAAUUACACAGGGGAUAGCAAAGUAGCACUUUACAAAUGGCCAUGGCGUUCAUCCCAAGAGCCACCAGCUCUUCUUA` — result for “RBNS enrichment (R)”: 0.16.
`CAGUGUGUCACACUGAGCUGGGCACCACAGGCUGCCUCAUGACCCUCCUGUCCAGCAGGUAGUGGGUGAAUGUGUGAAGGUCUUGCCUGAAUCCAUCAGGACUUGGGAAA` — result for “RBNS enrichment (R)”: 0.913.
`AGUAUAUGUUUGGCUCAUUUGAGCAUUUUGGAAUAUUUGAGAAUGUAUGAUACAUGUAAAAUUAAAAAAACUAUUAGAACUGUACCAUAAUUAUGUUGAAGGUAGAAGUG` — result for “RBNS enrichment (R)”: 0.665.

Set 2
Target: Interferon regulatory factor 5, full length, phosphomimetic (IRF5, Homo sapiens, UniProt Q13568-2, residues 1-514, K96S/S451D/S453D/S456D/S462D)
Technique: protein-binding microarray
Form: double-stranded DNA, one strand shown
Sample: in vitro
Tested at: 250 nM
Notes: 60-bp whole probe
Together with: salmon DNA 0.4 mg/ml
Relative to: random background probes
Direction: higher = stronger binding
All sequences stand within: GCCTAGCAC … GTCTTGATTCGCTTGACGCTGCTG
`TTAGATTTCATTCTCGATTAGTGCTAG` gave a log fluorescence of 2.17 z-score.
With `TTAGGTTTCCTAGTGCTTTAGTGCTAG` the log fluorescence was 0.377 z-score.
For `TTAGGTATCGGGACTGGGTTCGTGCTA`, the log fluorescence was 1.63 z-score.
With `TACGGTATCCTTATCCTGACGTGCTAG` the log fluorescence was 0.243 z-score.
`AGATATTCAGGTATATAAAGGTGCTAG` gave a log fluorescence of 0.679 z-score.
The log fluorescence of `GACGGTTTCGACTTTCTGGACGTGCTA` is reported as 6.32 z-score.
`GACGGTATCCTCCTGCTGACGTGCTAG` gave a log fluorescence of -0.256 z-score.
With `TTAGGACTACTTATCCTTTAGTGCTAG` the log fluorescence was -0.22 z-score.
`TACGGTTTCGGGTATCGGGACGTGCTA` gave a log fluorescence of 7.94 z-score.
`GACGGTTTCGACACAGGGGACGTGCTA` gave a log fluorescence of 5.21 z-score.
`AGTATGTTCCCTATTTAAGAGTGCTAG` has a log fluorescence of 0.58 z-score.
With `CACGAACTGGGGACTGGAGACGTGCTA` the log fluorescence was -0.698 z-score.
The log fluorescence of `GACGGACTGGGACTGGGGCCGTGCTAG` is reported as -0.645 z-score.
`GACGGTTGCGGTCTCGGGACGTGCTAG` has a log fluorescence of 0.486 z-score.
With `GACGGTCTCGACTTTCGGGACGTGCTA` the log fluorescence was 4.77 z-score.
The log fluorescence of `TTAGGTATCGGGTATCGGTTTGTGCTA` is reported as 6.38 z-score.
`TTAGGACTTGACTATCGGTTAGTGCTA` gave a log fluorescence of 6.73 z-score.
`TTAGATATCAGTTTCGATCAGTGCTAG` has a log fluorescence of 9.95 z-score.
The log fluorescence of `TCACTCGTGTTTTTCTCACTGTGCTAG` is reported as 0.644 z-score.

Set 3
Target: Ras GTPase-activating protein-binding protein 1, full length (G3BP1, Homo sapiens, UniProt Q13283)
UniProt Q13283, sequence (whole entry, looked up): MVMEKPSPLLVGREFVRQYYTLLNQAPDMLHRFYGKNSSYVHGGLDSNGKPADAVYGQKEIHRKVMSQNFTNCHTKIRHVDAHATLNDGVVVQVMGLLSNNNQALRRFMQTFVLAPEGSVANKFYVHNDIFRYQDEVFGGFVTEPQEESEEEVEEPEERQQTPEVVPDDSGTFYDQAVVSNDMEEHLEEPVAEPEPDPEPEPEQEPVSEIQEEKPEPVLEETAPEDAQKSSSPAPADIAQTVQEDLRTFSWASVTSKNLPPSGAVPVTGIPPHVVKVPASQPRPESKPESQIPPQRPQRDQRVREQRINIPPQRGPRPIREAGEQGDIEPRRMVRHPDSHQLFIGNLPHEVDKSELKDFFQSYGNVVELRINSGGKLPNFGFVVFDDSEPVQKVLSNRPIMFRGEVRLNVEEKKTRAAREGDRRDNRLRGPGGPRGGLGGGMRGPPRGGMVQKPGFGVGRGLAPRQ
Technique: RNA Bind-n-Seq
Form: RNA
Sample: in vitro
Tested at: 200 nM
Notes: whole 134-nt RNA, ends assumed
Together with: 150 mM KCl
Relative to: input library
Direction: higher = stronger binding
All sequences stand within: GGGAGUUCUACAGUCCGACGAUC … UGGAAUUCUCGGGUGUCAAGG
For `UCAAGUCCUGUGCUACACAUCGUAUGUACCGAAUCGGUUUGGUUUGGGGUUUGGAAAGUAUUAUGUUACGCCGUUCGGAUCUGCACUUCC`, the log2 enrichment was -0.707.
For `CCUGCUUUUGGGGGUGACCGCCGGAGCGCGGCGUGAGCCCUCCCCCUUGGGAUCCCGCAGCUGACCAGUCGCGCUGACGGACAGACAGAC`, the log2 enrichment was -2.36.
With `GUCCUGUGCUACACAUCGUAUGUACCGAAUCGGGUUUUUGGGAAAGGGUUUUUUUGGGAAAGUAUUAUGUUACGCCGUUCGGAUCUGCAC` the log2 enrichment was -0.425.
`CAAGUCCUGUGCUACACAUCGUAUGUACCGAAUCGGGGAAAGGAAAGGGGAAAGGAAAGUAUUAUGUUACGCCGUUCGGAUCUGCACUUC` has a log2 enrichment of -0.309.
`AAGUCCUGUGCUACACAUCGUAUGUACCGAAUCGGGUGGGUUUGGGAAAAAAAGGGAAAGUAUUAUGUUACGCCGUUCGGAUCUGCACUU` has a log2 enrichment of -0.113.
The log2 enrichment of `AAGUCCUGUGCUACACAUCGUAUGUACCGAAUCGGGAAAGGGAGGGUUUUUUUGGGAAAGUAUUAUGUUACGCCGUUCGGAUCUGCACUU` is reported as 0.235.
`AGUCCUGUGCUACACAUCGUAUGUACCGAAUCGGGGCCCCGGGCCCCGGGGCCCCGGGAAAGUAUUAUGUUACGCCGUUCGGAUCUGCAC` gave a log2 enrichment of -0.629.
The log2 enrichment of `GACUCUGAAGAAGAAGCUAUGGAGACUACACCAGCCAAAGGAAAGAAAGCUGCAAAAGUUGUUCCUGUGAAAGCCAAGAACGUGGCUGAG` is reported as -1.61.
`UGGGAGGUGGAUUUUGAUUAUUUUUUUAGCUCAUUUCCAGGGGUGGGAAUUUUUUUUUAAUAUGUGUCAUGAAUAAAGUUGUUUUUGAAA` has a log2 enrichment of 0.627.

Set 4
Target: RING finger protein unkempt homolog, zinc fingers 1-6, GST-SBP tag (UNK, Homo sapiens, UniProt Q9C0B0, residues 30-357)
UniProt Q9C0B0, sequence (30-357, looked up): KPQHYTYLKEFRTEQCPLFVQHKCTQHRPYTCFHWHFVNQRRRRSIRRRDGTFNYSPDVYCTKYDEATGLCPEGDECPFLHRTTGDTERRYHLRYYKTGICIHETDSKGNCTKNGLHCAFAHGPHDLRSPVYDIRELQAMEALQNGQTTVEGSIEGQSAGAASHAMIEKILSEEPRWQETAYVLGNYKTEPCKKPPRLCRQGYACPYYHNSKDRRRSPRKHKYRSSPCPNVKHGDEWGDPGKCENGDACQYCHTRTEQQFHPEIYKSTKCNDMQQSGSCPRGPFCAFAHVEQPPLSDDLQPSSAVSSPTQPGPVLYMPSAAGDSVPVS
Technique: RNA Bind-n-Seq
Form: RNA
Sample: in vitro
Tested at: not given
Notes: RNA with constant flanks, human-mouse chimeric sites, ends assumed
Relative to: input RNA pool
Direction: higher = stronger binding
All sequences stand within: GGGAGUUCUACAGUCCGACGAUC … CAACAGAGGAUUGAGCAUCA
`CCCCAAUACCAUUUGCAAGAGUUGGAAUGCACUCUCUUUUUUAAAAAACAUGUAUACAUUUUAGGGCUGUAGAUUUAUUUUCCUGGUUUUGUUUUUCAUUGCUGACUUUUGAGCACAGAA` gave a bound/input enrichment of 1.42 ratio.
With `CUGGCCUGGCCCUCCCCAGGGGCCUCCUUUCGUAUAGUAACUGUCAGUGCAUCAGAUACUUUCAGCUGCAACUCCCUACUGGGUGGGGCACCCAUUUGAGGCAGGGUGUUUUGGUACCCU` the bound/input enrichment was 0.465 ratio.
For `AACAGAUUUCUCAAGCACAUUCCAAGCAAUGCUUGGGGGGUGAUCAUUGUUGCCCAUGUGCCUUCUGACUGAGCUUUAAUGCUGUUCCAUGUUACAUCUUUCCUUCACUCCAGAAUUGUU`, the bound/input enrichment was 0.154 ratio.
The bound/input enrichment of `UUAAACACCAAGCUGAUGUAAAUGUUUGGCCUCCAUCUCUCAGGCACGUGUGCCUUCUCUUAGUCCCUGUUUUCGGGAUGUUAUGAAUCUCAGUACUGUGGUUUGAAAGCACCAGCUUUG` is reported as 0.154 ratio.
The bound/input enrichment of `GGAAGUACAAUGAUGGAGAUUGAUGGUGACAAAGGCAAACAAGGCGGGCCCACCUACUACAUAGACACCAAUGCCCUCCGCGUGCCCAGGGAGAAUAUGGAGGCCAUCUCACCACUCAAG` is reported as 0.239 ratio.
`CAGCUGCAGACAGAAAAGGAUGAGAAGGAACUUUAUAAGGUACAUUUGAAGAAUACAGAAAUAGAAAAUACGAAGCUUGUGUCAGAGGUCCAGACUUUAAAGAAUUUAGAUGGAAACAAA` has a bound/input enrichment of 5.47 ratio.
The bound/input enrichment of `GCUGGAUCUUCUAAAUACCAGUGGGACAUUAUGAAAUCCCUUGGGCUCUCUGAUGACGACAUAGUGAAGUUUUCUGAAGCAGAGCACUGGCUUGAUUAUUUCCCACCACUGGCCGUUCAG` is reported as 0.151 ratio.
For `CGGAGCCCUCCUCUCCCACAGGCCCAAGAUGUGACCCACCAGUGCCUUUUGUCUUCCUGUCAGCUCUGUCAAUCACGCCUGUCCUCUCACGCCCACACUCCCCAGCCAAAGUGGGGAGGG`, the bound/input enrichment was 0.356 ratio.

For quick reference, copied from above (set 1):
Under “RBNS enrichment (R)”, `AUUUCAGCCUCGUGGCUUCUCUUAUUCAGGUCCAAGGCCCCUUAAAAACAAAACAUAUUAUCGCAAGGGCUUUCAUUUCAGUAUUGGCUGUGUCACUGGCAGGAUGCAUC` is recorded as 0.894.
`CCUCCUUCCCUUGCUCCUCCUCUGGAGAAGCACUAAUUACACAGGGGAUAGCAAAGUAGCACUUUACAAAUGGCCAUGGCGUUCAUCCCAAGAGCCACCAGCUCUUCUUA` — result for “RBNS enrichment (R)”: 0.16.
`AGUAUAUGUUUGGCUCAUUUGAGCAUUUUGGAAUAUUUGAGAAUGUAUGAUACAUGUAAAAUUAAAAAAACUAUUAGAACUGUACCAUAAUUAUGUUGAAGGUAGAAGUG` — result for “RBNS enrichment (R)”: 0.665.
`GACACUAGACUCAGUAGAUUUUUAGGGAAAAAUAUGAUUAAUAGUAUCAUGGUGAACCAUUUAUUUAACUGUUGAUCUAGUCACCAAUACCUAGAAGACACCAUAAUCAG`: “RBNS enrichment (R)” 0.289.
Under “RBNS enrichment (R)”, `UUGGUAGUACGUGGUACAGUGGCUUUUCUCUGUGGUCAUGUCUUAGGGGCAAAGGCGUGUGGAUGGUGCCAAUGAAACCCUUUACCUAUUUAAUAAAAACGGAUACAUUU` is recorded as 0.509.
